Published values of several laboratories.
Numbered parts are unrelated; each lists some results of a single study. Changes are numbered by the printed parent chain.

Study 1 — technique: protein binding microarray; molecule type: double-stranded DNA, one strand shown; medium: in vitro; tested at: not given; reference: not given; reading: higher = stronger binding
Target: Histone acetyltransferase KAT6A, winged helix 1, GST fusion (KAT6A, Homo sapiens, UniProt Q92794, residues 1-85)
Notes: 8-mer, flanks averaged, mean of 2 arrays, mostly near background
Residues (chain): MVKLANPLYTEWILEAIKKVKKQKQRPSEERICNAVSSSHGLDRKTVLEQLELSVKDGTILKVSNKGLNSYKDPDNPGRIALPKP
| Oligonucleotide | E-score |
| --- | --- |
| ACAAGGCT | 0.00252 |
| CGCGTGTC | 0.295 |
| CCGGCTAG | 0.219 |
| GTGACCTA | -0.177 |
| AGCTAGGG | -0.156 |
| ATTAAAAT | -0.042 |
| ATATTGGA | -0.28 |
| ACATACAT | -0.186 |
| ACCCCGGT | 0.0816 |
| GGAAATCC | 0.0721 |
| CCCTACCC | 0.0561 |
| CGGACACA | 0.143 |
| AAAAGAGA | -0.226 |
| CACCGCGA | 0.261 |
| AGCTCACA | -0.271 |
| AAGCATGT | -0.106 |
| GGCTTGTA | -0.0222 |

Study 2 — target: CCNF, cyclin fold, Cln2 fusion (human); technique: yeast growth competition, sequencing; medium: yeast; notes: strong parent motif; reference: not given; reading: higher = stronger binding
Starting sequence: PLK5 docking peptide (human); IFRKVGQRLLTQC; partner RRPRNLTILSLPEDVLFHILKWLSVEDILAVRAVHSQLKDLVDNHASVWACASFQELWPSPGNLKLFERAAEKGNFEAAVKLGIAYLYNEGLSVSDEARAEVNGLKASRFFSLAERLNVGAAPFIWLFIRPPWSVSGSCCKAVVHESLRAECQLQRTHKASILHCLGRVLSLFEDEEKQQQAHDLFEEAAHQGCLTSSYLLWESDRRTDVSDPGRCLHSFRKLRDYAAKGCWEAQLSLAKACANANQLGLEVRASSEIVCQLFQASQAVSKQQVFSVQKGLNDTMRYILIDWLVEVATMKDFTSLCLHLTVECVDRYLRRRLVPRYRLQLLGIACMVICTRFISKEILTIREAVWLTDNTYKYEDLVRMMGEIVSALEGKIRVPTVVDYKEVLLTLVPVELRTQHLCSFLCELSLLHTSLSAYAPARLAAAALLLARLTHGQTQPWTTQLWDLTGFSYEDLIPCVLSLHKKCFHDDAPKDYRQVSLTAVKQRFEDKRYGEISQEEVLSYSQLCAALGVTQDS
| Change | normalised enrichment score |
| --- | --- |
| IFRKVGQRLLTQA [C13A] | 0.219 |
| IARKVGQRLLTQC [F2A] | 1.21 |
| IFRKVGQRLATQC [L10A] | 1.15 |
| IFRKVGQALLTQC [R8A] | 2.67 |
| IFRAVGQRLLTQC [K4A] | 2.4 |
| IFRKVAQRLLTQC [G6A] | 2.77 |

Study 3 — technique: DHFR PCA, deep sequencing; medium: yeast; together with: (+)-ABA 0.0091 µM; reference: wild-type fitted maximum; reading: higher = stronger binding
Target: ABI1, truncated, D143A, DHFR fusion (Arabidopsis thaliana)
Notes: methotrexate growth selection, single substitutions
Starting sequence: PYL1, truncated, DHFR fusion (Arabidopsis thaliana); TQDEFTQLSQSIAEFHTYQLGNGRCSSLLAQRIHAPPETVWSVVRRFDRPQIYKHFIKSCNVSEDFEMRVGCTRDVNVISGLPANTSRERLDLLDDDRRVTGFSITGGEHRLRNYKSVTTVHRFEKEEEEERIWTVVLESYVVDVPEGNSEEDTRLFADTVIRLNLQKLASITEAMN; partner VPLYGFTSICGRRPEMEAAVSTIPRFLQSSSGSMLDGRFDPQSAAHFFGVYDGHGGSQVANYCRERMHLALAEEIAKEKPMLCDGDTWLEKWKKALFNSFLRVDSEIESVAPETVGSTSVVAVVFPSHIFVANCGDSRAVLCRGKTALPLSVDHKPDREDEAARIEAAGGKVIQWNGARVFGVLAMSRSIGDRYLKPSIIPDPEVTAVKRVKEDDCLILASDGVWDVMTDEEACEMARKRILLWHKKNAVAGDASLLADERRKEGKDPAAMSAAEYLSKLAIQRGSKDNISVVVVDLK
| Change | relative binding score [%] |
| --- | --- |
| I105H | 3.22 |
| Q19L | -0.2 |
| T120V | -9.08 |
| D75W | 18.7 |
| L20K | 40.5 |
| A13G | 9.91 |
| N85P | -0.302 |
| S27H | 1.21 |
| G23R | 21.7 |
| R99F | 68.9 |
| D153S | -1.98 |
| T135A | 0.968 |
| R45C | -2.54 |
| E129T | 24.3 |
| E64L | 6.4 |

Study 4 — technique: RNA Bind-n-Seq; molecule type: RNA; medium: in vitro; tested at: not given; reference: input RNA pool; reading: higher = stronger binding
Target: RING finger protein unkempt homolog, zinc fingers 1-6, GST-SBP tag (UNK, Homo sapiens, UniProt Q9C0B0, residues 30-357)
Notes: RNA with constant flanks, human and mouse sites, ends assumed
Construct (chain): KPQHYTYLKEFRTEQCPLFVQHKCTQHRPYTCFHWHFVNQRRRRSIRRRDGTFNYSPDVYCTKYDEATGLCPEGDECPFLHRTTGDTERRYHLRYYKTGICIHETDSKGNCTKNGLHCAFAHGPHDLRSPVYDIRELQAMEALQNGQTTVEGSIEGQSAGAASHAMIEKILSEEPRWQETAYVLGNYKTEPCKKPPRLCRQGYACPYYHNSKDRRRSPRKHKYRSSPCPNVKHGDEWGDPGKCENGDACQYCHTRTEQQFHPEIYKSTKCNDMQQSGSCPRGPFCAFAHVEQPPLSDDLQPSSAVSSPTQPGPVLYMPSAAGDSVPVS
| Oligonucleotide | bound/input enrichment [ratio] |
| --- | --- |
| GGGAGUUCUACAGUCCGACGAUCGUCAUGUGACAACUCAGCUCACAUCACCAGCUCACCUCUGGUAGCCAUAGCAGCCCCUGCUUCAGCCCCACCGCACCCCUCCAGGGGGCCUGCCUUUCCCUGACACUUUUGGGGUCUGCCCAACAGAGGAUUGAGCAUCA | 0.189 |
| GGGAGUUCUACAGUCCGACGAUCCGGUAUCCAGACAUCCGCAUUGAAGGCGAGAAUUAUCUCCCUCAACCAAUUUAUAGACACAUAGCAUCUUUCCUGUCAGUCUUCAAACUAGUAUUAAUAGGCUUAAUAAUUGUUGGCAAACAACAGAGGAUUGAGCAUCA | 93.9 |
| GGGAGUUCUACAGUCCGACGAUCUUUGCCUUGCCUGAAGAAGGACCGCGUGGAGAUGAGAGGGAGGAGAUUGUCCACAUUGUUGAGGAAGAAGUCGUUGAGGAAGAGGAGGAAGUCCAAGAUGAAGAAGUCCAAAGUCAGUCUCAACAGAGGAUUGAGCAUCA | 0.177 |
| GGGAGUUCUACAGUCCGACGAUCGUCUCAGCUGCCUUAGACUAAAGGACUUUCAACACACUGGUCUCUUUUAAUUUAGUGAAAAGUGUGGGAGUUGUAAUUAGGAUCAUCCACCCCAGACAUGGAAUCCCCCCUCCCUGGUGGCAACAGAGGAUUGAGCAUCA | 1.54 |
| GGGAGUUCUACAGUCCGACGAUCAGCUCUGCAGGAUCCUCCUUUGUAUUUGGAACUGGACCCUCAGCACCAUCUGCCAGUCCAGCAUUUGGUGCUAACCAGACCCCAACAUUUGGACAAAGUCAAGGUGCCAGCCAGCCCAAUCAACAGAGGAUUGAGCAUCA | 0.099 |
| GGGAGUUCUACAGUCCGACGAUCCAUUUCUAUAUUUGUACAUUUUCAUUUAUGAGUUCUAUGAUGUGGUCUCUGAAAGACCAAAUAGAUUUCUAUUUCUACUUCUUAUUUUUAAGUUCAUUGUGUCUACAAAUUGUUAAUAUUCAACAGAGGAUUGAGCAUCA | 0.836 |
| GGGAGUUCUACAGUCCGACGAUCACUUUUCCAGUAUUUUAGUGGACCCUGAAAUGUGUGUGAUGUGACAUUUGUUAUUUUCAUUAGCAAAAAAAAGAGUUGUAUGAUCUGUGCCUUUUUUAUAUCUUGGCAGGUAGGAAUAUUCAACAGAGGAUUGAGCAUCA | 0.625 |
| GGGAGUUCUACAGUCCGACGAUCACUGGUGUGAUCAUUGUUGGACUGCAGGGGGAAGCUGAGCGUGGACCCCGCUUUCCCCGGGCUAGCAGUGAGGCUACGAUUCGUGAGAAUGCGCCCCCAGGGACUCCUAUUGUCUCCCCCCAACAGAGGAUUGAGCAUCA | 0.127 |

Study 5 — technique: RNA Bind-n-Seq; molecule type: RNA; medium: in vitro; tested at: 200 nM; notes: whole 134-nt RNA, ends assumed; together with: 150 mM LiCl; reference: input library; reading: higher = stronger binding; all molecules: 7-deaza-guanosine replaces G
Target: Ras GTPase-activating protein-binding protein 1, full length (G3BP1, Homo sapiens, UniProt Q13283)
UniProt Q13283, sequence (whole entry, looked up): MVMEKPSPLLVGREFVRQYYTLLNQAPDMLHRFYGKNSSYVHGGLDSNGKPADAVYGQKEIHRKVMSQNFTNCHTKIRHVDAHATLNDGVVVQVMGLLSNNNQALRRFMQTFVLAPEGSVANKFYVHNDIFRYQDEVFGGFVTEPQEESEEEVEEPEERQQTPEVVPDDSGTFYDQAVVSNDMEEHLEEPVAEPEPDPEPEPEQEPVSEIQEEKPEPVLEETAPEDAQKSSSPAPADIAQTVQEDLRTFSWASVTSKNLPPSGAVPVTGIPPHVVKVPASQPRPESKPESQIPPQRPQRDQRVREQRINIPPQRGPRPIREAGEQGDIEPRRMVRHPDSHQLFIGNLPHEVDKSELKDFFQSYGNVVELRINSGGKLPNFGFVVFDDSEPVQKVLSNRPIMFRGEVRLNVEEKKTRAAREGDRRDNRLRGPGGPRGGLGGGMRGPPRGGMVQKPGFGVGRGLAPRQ
| Oligonucleotide | log2 enrichment |
| --- | --- |
| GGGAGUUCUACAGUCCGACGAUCCAAGUCCUGUGCUACACAUCGUAUGUACCGAAUCGGGAAAGGGUUUUUGGGUGGGAAAGUAUUAUGUUACGCCGUUCGGAUCUGCACUUCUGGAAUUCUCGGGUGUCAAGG | -0.0166 |
| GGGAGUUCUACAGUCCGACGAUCUGCCUCUGCGGCUAGCUGAUUUUGGGGUACUUCAUAGGAACGAGCUGUCUGGAGCACUCACAGGACUCACCCGGGUACGAAGAUUCCAACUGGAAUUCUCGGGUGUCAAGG | -2.37 |
| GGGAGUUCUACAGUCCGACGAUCCAAGUCCUGUGCUACACAUCGUAUGUACCGAAUCGGGGAAAGGGAAAGGGGAAAGGAAAGUAUUAUGUUACGCCGUUCGGAUCUGCACUUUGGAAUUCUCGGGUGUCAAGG | -0.712 |
| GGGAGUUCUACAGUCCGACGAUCCCUGUGCUACACAUCGUAUGUACCGAAUCGGCCCCCCCGGGCCCCCCCGGGCCCCCCCGGAAAGUAUUAUGUUACGCCGUUCGGAUCUGCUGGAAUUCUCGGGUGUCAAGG | 0.347 |
| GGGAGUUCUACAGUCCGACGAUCACCAUGCAGGUGGGCAUCUUUGGGAAGUGGGGCAAGGGGGGGAUAGGGAGGGGGGUAACACUUUGGGAACAGGUGGACCCAGGUCGUUUCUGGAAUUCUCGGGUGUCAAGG | -0.0269 |
| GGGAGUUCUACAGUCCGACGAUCACCAUGCAGGUGGGCAUCUGUGGGAAGUGGGGCAAGGGGGGGAUAGGGAGGGGGGUAACACUUUGGGAACAGGUGGUCCCAGGUCGUUUCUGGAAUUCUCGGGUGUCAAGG | 0.178 |
| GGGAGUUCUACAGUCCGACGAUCAAGUCCUGUGCUACACAUCGUAUGUACCGAAUCGUGUGUGUGUGUGUGUGUGUGUGUAAAGUAUUAUGUUACGCCGUUCGGAUCUGCACUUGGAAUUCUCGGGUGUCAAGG | -0.575 |
| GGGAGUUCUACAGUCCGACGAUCGUCCUGUGCUACACAUCGUAUGUACCGAAUCGGGGAAAAAAAGGGGAAAGGGGUGGGGAAAGUAUUAUGUUACGCCGUUCGGAUCUGCACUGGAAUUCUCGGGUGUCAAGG | -0.916 |
